Experimental data from different studies.
Numbered parts are unrelated; each lists some results of a single study.

Study 1
Target: Ras GTPase-activating protein-binding protein 1, full length (G3BP1, Homo sapiens, UniProt Q13283)
UniProt Q13283, sequence (whole entry, looked up): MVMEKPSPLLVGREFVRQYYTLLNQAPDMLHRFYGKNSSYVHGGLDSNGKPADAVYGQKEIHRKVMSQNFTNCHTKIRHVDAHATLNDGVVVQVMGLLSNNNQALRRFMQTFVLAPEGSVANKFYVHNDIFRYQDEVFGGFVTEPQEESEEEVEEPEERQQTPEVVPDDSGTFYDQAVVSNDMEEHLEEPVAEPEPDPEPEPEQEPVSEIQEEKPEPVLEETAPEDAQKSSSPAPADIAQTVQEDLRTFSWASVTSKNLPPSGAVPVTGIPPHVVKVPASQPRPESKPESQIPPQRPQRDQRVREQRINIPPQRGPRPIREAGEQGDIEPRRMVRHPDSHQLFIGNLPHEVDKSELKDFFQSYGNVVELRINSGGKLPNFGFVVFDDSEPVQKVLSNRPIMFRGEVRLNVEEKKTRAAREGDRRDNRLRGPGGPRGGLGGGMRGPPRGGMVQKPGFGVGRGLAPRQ
Technique: RNA Bind-n-Seq
Molecule type: RNA
Matrix: in vitro
Tested at: 200 nM
Notes: whole 134-nt RNA, ends assumed
Together with: 150 mM KCl
Relative to: input library
Reading: higher = stronger binding
All sequences stand within: GGGAGUUCUACAGUCCGACGAUC … UGGAAUUCUCGGGUGUCAAGG
`UGGCCCUGGUGGCAUGCGGGGAGGAAGAGGUGGCCUCAUUGAUCGUGGUGGUCCCGGUGGAAUGUUCAGAGGUGGCCGUGGUGGAGACAG` gave a log2 enrichment of 0.331.
With `UUUCUCCAUUGCAGGAAGUUGGCAGUAUCAUCGGAAAGGUAAGACAAUUUCACUUCAACUUCAAUUACCAUUUAGUAAUUCUGGAUUGAA` the log2 enrichment was -1.22.
The log2 enrichment of `GCAGGAAGUAAAAACAAAUGGAAAUGCUUCGGAUAGUGGCAGGGGUGGGGGUUGCUAAGGAAAGGGUGGGAUGUGAGUGGGUAAAGAGUU` is reported as 0.857.
For `ACCAUGCAGGUGGGCAUCUUUGGGAAGUGGGGCAAGGGGGGGAUAGGCAGGGGGGUAACACUUUGGGAACAGGUGGUCCCAGGUCGUUUC`, the log2 enrichment was 0.873.
`UGGCCCUGGUGGCAUGCGGGGAGGAAGAGGUGGCCUCAUGGAUCGUGGUGGUCCCGGUGGAAUGUCCAGAGGUGGCCGUGGUGGAGACAG` has a log2 enrichment of -0.0791.
`CAAGUCCUGUGCUACACAUCGUAUGUACCGAAUCGGGGCCCGGCCCGGGCCCGGGGAAAGUAUUAUGUUACGCCGUUCGGAUCUGCACUU` gave a log2 enrichment of -1.23.
`UAAUUUAGAUCUUAAAGAAAAAGUGGAGCCUGAGGUUCUCAGCACUGAUACCCAAACUUCCCCAGAGCCAGGCACAAGGAUGAACAUUCU` gave a log2 enrichment of -0.528.
With `GUCCUGUGCUACACAUCGUAUGUACCGAAUCGGGUUUUUUGGUUUUUUGGUUUUUUGGGAAAGUAUUAUGUUACGCCGUUCGGAUCUGCA` the log2 enrichment was -1.17.
For `CCUGUGCUACACAUCGUAUGUACCGAAUCGGGGAAAAAAAGGGGAAAAAGGGGAAAGGGGAAAGUAUUAUGUUACGCCGUUCGGAUCUGC`, the log2 enrichment was 0.267.
For `AGUCCUGUGCUACACAUCGUAUGUACCGAAUCGGGUUUUUUUGGGAAAGGGAAAGGGAAAGUAUUAUGUUACGCCGUUCGGAUCUGCACU`, the log2 enrichment was -0.24.
With `UGUGCUACACAUCGUAUGUACCGAAUCGGGGUUUUUUUGGGGAAAAAAAGGGGAAAAAGGGGAAAGUAUUAUGUUACGCCGUUCGGAUCU` the log2 enrichment was -0.497.
For `UCAAGUCCUGUGCUACACAUCGUAUGUACCGAAUCGGGUUUGGGUGGGAAAGGGAAAGUAUUAUGUUACGCCGUUCGGAUCUGCACUUCC`, the log2 enrichment was 1.06.
For `UGGGAGGUGGAUUUUGUUCAUUUUUUUAGCUCAUUUCCAGGGGUGGGAAUUUUUUUUUAAUAUGUGUCAUGAAUAAAGUUGUUUUUGAAA`, the log2 enrichment was 0.108.
The log2 enrichment of `UGGGAGGUGGAUUUUGUUUAUUUUUUUAGCUCAUUCCCAGGGGUGGGAAUUUUUUUUUAAUAUGUGUCAUGAAUAAAGUUGUUUUUGAAA` is reported as -0.201.

Study 2
Target: RING finger protein unkempt homolog, zinc fingers 1-6, SBP tag (UNK, Homo sapiens, UniProt Q9C0B0, residues 30-357)
UniProt Q9C0B0, sequence (30-357, looked up): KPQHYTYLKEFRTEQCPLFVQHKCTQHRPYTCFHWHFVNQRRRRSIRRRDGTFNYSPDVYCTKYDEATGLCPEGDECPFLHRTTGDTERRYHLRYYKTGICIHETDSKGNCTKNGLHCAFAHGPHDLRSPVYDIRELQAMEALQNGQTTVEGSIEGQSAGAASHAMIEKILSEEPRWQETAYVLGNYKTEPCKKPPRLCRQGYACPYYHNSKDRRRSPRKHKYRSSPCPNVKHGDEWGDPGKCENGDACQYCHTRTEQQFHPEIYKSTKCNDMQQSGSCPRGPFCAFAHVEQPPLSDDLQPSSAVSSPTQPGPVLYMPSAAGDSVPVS
Technique: RNA Bind-n-Seq
Molecule type: RNA
Matrix: in vitro
Tested at: 100 nM
Notes: RNA with constant flanks, vertebrate orthologous sites, ends assumed
Relative to: input RNA pool
Reading: higher = stronger binding
All sequences stand within: GGGAGUUCUACAGUCCGACGAUC … CAACAGAGGAUUGAGCAUCA
`AUUCAAACCUGUGGUGCCAUGGCCUCAUGUGGAAGGAGUAGAAGUGGACUUAGAGUCUAUUAGAAGAAAAAACAAGGCCAAAAAUGAACAGGAACACCAUGCUGGCGGAGAUUCCCAAAA` gave a bound/input enrichment of 0.411 ratio.
For `GACCUCCCGAACGUCUGGCUUUCAAGCCGCGGCUGUUUUAGAUACUGGUUUUGUUUCCUUGACGAUGCUUCCCCGUCUGCCGCCUCCUCUUCCCCUGUUCCCGAGGUUUGACUCGUGGAU`, the bound/input enrichment was 0.521 ratio.
`UACUAGCGUCAUACCAGCAUAUUAACUAGUCAUAUGUGCACAGCUUAAAAAUUAACAGUCUAGUUAUAUUUUUUAAUUUAACAACUGCUUUUUCCCAAGACUGAAAAAGAAGCUACAAUU` gave a bound/input enrichment of 0.857 ratio.
With `GCCUCCAACAGGCACAUUCAGGGAGAGAGAAGCUUCAGGGAACAUAAAUUUAUUUAAUAGUAGUGAUCAUGAAGUACAAAUUUGAUAUAAUUGAAUAAUUUGUGAGGGGUGAUAAAUUUU` the bound/input enrichment was 0.979 ratio.
`AACAACUCAAGGAUUCAGGACUGGUUUUACAAAUAUACCAAGCAAAUAUGGAACUAACAGUAGAGGGCAAUCCAGACCAUAAGACACUGCCAUUUGAUCUUAUUUAUUCUUAUUAAGGGU` has a bound/input enrichment of 0.818 ratio.
The bound/input enrichment of `UCUACUGACCACUCACUGUUAUGUCUGGAUAUCUGUAAACACUUUUCUUUUUGUUCUUAGUCUUUUUCUUGUAUAAUUGAUGUUCUCUAAAAUUGUUAAUGUAUCACAGGGCUCAUGUUU` is reported as 1.39 ratio.
For `UUCUUUUAUUUUGCACAUGACAGUGUUAUGUUGAGGACCUUCUGGGGUGGGCAAGUGCCAUGGCAGUGGCACCCAGGUGCCUGGCUGCAGUGCCCACCACUCCUGGCACCUUUUCCAUGU`, the bound/input enrichment was 0.297 ratio.
The bound/input enrichment of `CAAUUCAAUGGUCGAGGGUUCAGAACUCAAAAAGGUUCGCUCCAACUCCAGGAUUUACCAUAGGUAUUUUUUACUGGAUGCUGACAUGCAGAGCCUGAGGUGGGAACCAUCUAAGAAGGA` is reported as 0.154 ratio.
`AGGAAAUGCUGGCUGCAAACCCUCAGGAUCGUCCAGAUGCUUUUGAACUAGAACUCAGAUUAGUACAAAUUGCAUUUAAAGAUAACAGCUGGGAAACGUGACACAUAUAUUAUUUGCAAA` has a bound/input enrichment of 1.53 ratio.
With `ACGUAUUUAUACUGGCCAAACAUUUUUGACUUUGUAUUUCUUUGUCCUUUUUUGGUAGUUCUCGUUGUUACCCGCACCAUUUUUAUGUCUCCUUCACUGAAGGGCUAGAGUUUUAACUUU` the bound/input enrichment was 0.551 ratio.
With `AUCAUGGUCGCUUUUUACCACCUCAAUGAGGUAGAGUCUCCCUUGGUAUGUGGUUGUUAUAAGAGCCAGUCGUACCUGAUAAGUCUCCACAUUUCCUUUCUUUCACUCUCUUAGUCGUCU` the bound/input enrichment was 0.953 ratio.

Study 3
Target: Hepatocyte nuclear factor 3-beta, forkhead domain (FOXA2, Homo sapiens, UniProt Q9Y261, residues 142-269)
Technique: protein-binding microarray
Molecule type: double-stranded DNA, one strand shown
Matrix: in vitro
Tested at: not given
Notes: k-mer, scored over probes, only values ≥0.25
Reading: higher = stronger binding
Residues (chain): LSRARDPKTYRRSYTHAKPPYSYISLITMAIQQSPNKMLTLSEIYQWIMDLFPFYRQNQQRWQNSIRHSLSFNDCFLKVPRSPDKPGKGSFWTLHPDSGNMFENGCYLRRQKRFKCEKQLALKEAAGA
With `CGTGTTAA` the E-score was 0.283.
With `ACAACACA` the E-score was 0.29.
The E-score of `ATTAATAC` is reported as 0.314.
`AGTTATAT` gave an E-score of 0.33.
`CATAAATA` gave an E-score of 0.338.
The E-score of `CAATGTTA` is reported as 0.272.
For `AATAACAT`, the E-score was 0.377.
`ATGTAATA` gave an E-score of 0.319.
`TTAGACAA` has an E-score of 0.262.
For `TATGTTCA`, the E-score was 0.282.
`ATAAATAT` has an E-score of 0.399.
`AAATTGGA` has an E-score of 0.269.
`ATGGTAAA` has an E-score of 0.294.
With `GTACATAA` the E-score was 0.338.
For `ACGATAGT`, the E-score was 0.265.
`AATACAGT` has an E-score of 0.362.

Study 4
Target: RNA binding protein fox-1 homolog 2, RRM domain, GST-SBP tag (RBFOX2, Homo sapiens, UniProt O43251-10, residues 100-194)
Technique: RNA Bind-n-Seq
Molecule type: RNA
Matrix: in vitro
Tested at: 365 nM
Notes: natural RNA segment, single round, ends assumed
Relative to: no-protein control
Reading: higher = stronger binding
All sequences stand within: GGGAGUUCUACAGUCCGACGAUC … UGGAAUUCUCGGGUGCCAA
Residues (chain): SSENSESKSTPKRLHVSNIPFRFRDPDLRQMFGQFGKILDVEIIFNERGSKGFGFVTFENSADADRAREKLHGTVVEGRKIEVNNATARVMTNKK
`AAUGUAGUUAAAUUCAUCUUUAAAGUACACAUAUGUGCCUAGAGCCAAAAAAUAAUAAUGAUUUAAUUUAUGACCUUAUGUUGAGACUAAUUUCACAUCUUAUUUUGCAG` — result for “RBNS enrichment (R)”: 0.531.
Under “RBNS enrichment (R)”, `GAUGACCUGUCAAUAAACUUUUUUUUACUAAUGAACUGUACAUUUAAAUAAAAGUUUAUUUUUGGGAUAAUUGUGAGCCUUUCCUUUCUCUAGAGACCUUUUAUAAAAGC` is recorded as 0.713.
Under “RBNS enrichment (R)”, `UUCCUCCCAGGAGCCCAUGCUCAGGCCUCCCACACCAGGACCUCAGGCUGAGAGCUGAGCAGAGCACACUAGGCAGGGAAAGCCAUGUGGGUCUCCAGUCCUGUUUGCCU` is recorded as 0.672.
`GAAAUGUUUUCUUAAGCUUUUCCUUUCUCUUACACCUGCCAUGCCUCCCCAAAUUGGGCAUUUAAUUCAUCUUUAAACUGGUUGUUCUGUUAGUCGCUAACUUAGUAAGU` — result for “RBNS enrichment (R)”: 0.391.
`CAGCUUUGAGCCCCAGUAUGCACUAUGCUUAAGCUCUGACGACUCUUGCGUGCAGCGAGGAGGUCCUCCCUGACAUGCUCAGCAUCCCGCAGUGAUUCCUCUCAUAGCUC` — result for “RBNS enrichment (R)”: 0.285.
`CAGGGUGCACAGCAGGGCGGGGUAGGACCCCAGCCCCUCCCAAAACAGCCUCUCCUUCUCCCAUAGACCCCUUUCUUCUCCCCUUCCCCACGGUAGGAACAUAGCGUGUU`: “RBNS enrichment (R)” 0.432.
`AGCCACUGUCUAGACCUCCUCCAUCAGAUGCCUAGGCCUCCUCCAUCAGAUACCUGGGCCUCCUCCAUCAGAUGUCUGGGCCUCCUCCAUCAGAUGUCUGGGCCUCCUCC`: “RBNS enrichment (R)” 0.377.
For `UUAUCUCAGCUUCUCCAUCACCCCCACUUGGAGCAACAGUGUCACAUCUCCACCCCACUUACCAAUAAAAGCUACCCUUUCCACCCAGUGGAAUGGGAUGGCAGAAAACC`, “RBNS enrichment (R)” read 0.353.
For `GAUUUACUCAGAGCCACCUGACAGCAGGCCACUAGUGACAGUUUCUGUUAUGUUCCUAUGGAAACACUGUACUGUACAUACUAUGCUUAAAACAUUUAAAACACAAUGUU`, “RBNS enrichment (R)” read 0.472.
Under “RBNS enrichment (R)”, `AACAUACCACUUCUUUGUUUAACUCCUUUACCUUUCCAGCCCUUUGAGGAGGGACCAUGAGAACAGAAAUUACCUUAUGAAAAGCUACUUCUGUUCCUGCUUUCCCUCUC` is recorded as 0.436.
`AAAAAAAAAAAAAAAAAAAAAAAAAAAAGGAGAAAGAAAAAAAAAGAAAGAAAAAAUAGCAGCUUUCAGUGCUUCACAGUGAAGGGAAAAAAGCCUAGACAAACAUUUUG`: “RBNS enrichment (R)” 5.12.
For `AGAUAAUCUUAAUGACUAUUUUGGCAUUUAUAAAUAGAAAUGAUUAUGGACUUUGAUCUGCCAUACGGAGGUUCGGAACCUGGAGAACGGCUGUGAUAAGUAGGUUUUGA`, “RBNS enrichment (R)” read 0.51.

Excerpt of the above (study 3):
`TTAGACAA` has an E-score of 0.262.
For `TATGTTCA`, the E-score was 0.282.
`ATAAATAT` has an E-score of 0.399.
`AAATTGGA` has an E-score of 0.269.
`ATGGTAAA` has an E-score of 0.294.
With `GTACATAA` the E-score was 0.338.
